Published values of several laboratories.
Protocols differ between the studies behind these lines.
HLA class I histocompatibility antigen, A alpha chain allele A*26:01: HLA class I histocompatibility antigen, A alpha chain, allele A*26:01 (Homo sapiens, UniProt P04439)
HLA class I histocompatibility antigen, A alpha chain allele A*24:02: HLA class I histocompatibility antigen, A alpha chain, allele A*24:02 (Homo sapiens, UniProt P04439)

| SMILES | target | test | setting | IC50 |
| --- | --- | --- | --- | --- |
| CC(C)C[C@H](NC(=O)[C@@H](N)CCC(=O)O)C(=O)N1CCC[C@H]1C(=O)N[C@@H](CC(=O)O)C(=O)N[C@@H](CCC(=O)O)C(=O)N[C@@H](Cc1ccccc1)C(=O)N[C@H](C(=O)N[C@H](C(=O)N[C@H](C(=O)N[C@H](C(=O)N[C@H](C(=O)O)C(C)C)[C@@H](C)O)C(C)C)C(C)C)C(C)C | HLA class I histocompatibility antigen, A alpha chain allele A*26:01 | peptide-MHC binding, radioligand competition binding |  | 0.072 µM |
| CC(C)[C@H](NC(=O)[C@@H](N)Cc1ccc(O)cc1)C(=O)N[C@@H](Cc1ccc(O)cc1)C(=O)N[C@@H](CCC(N)=O)C(=O)N[C@@H](Cc1c[nH]cn1)C(=O)N1CCC[C@H]1C(=O)N[C@@H](Cc1c[nH]cn1)C(=O)N[C@H](C(=O)N[C@@H](Cc1ccc(O)cc1)C(=O)O)[C@@H](C)O | HLA class I histocompatibility antigen, A alpha chain allele A*24:02 | binding |  | 59.4 µM |
| CSCC[C@H](NC(=O)[C@@H](NC(=O)[C@@H](NC(=O)[C@H](CC(C)C)NC(=O)[C@H](CC(N)=O)NC(=O)[C@H](CC(N)=O)NC(=O)[C@@H](NC(=O)[C@H](C)NC(=O)[C@@H](N)CC(C)C)[C@@H](C)O)C(C)C)C(C)C)C(=O)O | HLA class I histocompatibility antigen, A alpha chain allele A*26:01 | peptide-MHC binding, radioligand competition binding |  | > 70 µM |
| CSCC[C@H](NC(=O)[C@H](Cc1c[nH]cn1)NC(=O)[C@H](Cc1ccccc1)NC(=O)[C@@H]1CCCN1C(=O)[C@H](CCCCN)NC(=O)[C@H](CCC(=O)O)NC(=O)[C@H](Cc1c[nH]c2ccccc12)NC(=O)[C@H](CC(C)C)NC(=O)[C@@H](N)CCCNC(=N)N)C(=O)O | HLA class I histocompatibility antigen, A alpha chain, allele A*01:01 (Homo sapiens, UniProt P04439) | binding |  | 53.7 µM |
| CSCC[C@H](NC(=O)[C@H](CCC(=O)O)NC(=O)[C@H](CCC(=O)O)NC(=O)[C@@H](N)CCCNC(=N)N)C(=O)N[C@@H](CCC(=O)O)C(=O)N[C@H](C(=O)N[C@@H](Cc1c[nH]cn1)C(=O)N[C@@H](CCC(=O)O)C(=O)N[C@@H](CC(C)C)C(=O)O)C(C)C | HLA class I histocompatibility antigen, A alpha chain, allele A*30:02 (Homo sapiens, UniProt P04439) | binding, competitor, radioligand competition | two days, room temperature, HLA-A*30:02 | > 40 µM |
| CC(C)[C@H](NC(=O)CNC(=O)CNC(=O)[C@@H](NC(=O)[C@H](CO)NC(=O)[C@@H]1CCCN1C(=O)[C@H](C)NC(=O)[C@H](CO)NC(=O)[C@H](CCCCN)NC(=O)[C@@H](N)CCCNC(=N)N)[C@@H](C)O)C(=O)O | HLA class I histocompatibility antigen, A alpha chain, allele A*02:02 (Homo sapiens, UniProt P04439) | binding |  | > 38.7 µM |
| CC(C)C[C@H](NC(=O)[C@H](CCC(N)=O)NC(=O)[C@H](CC(=O)O)NC(=O)[C@H](C)NC(=O)[C@@H](N)Cc1c[nH]cn1)C(=O)N[C@H](C(=O)N1CCC[C@H]1C(=O)N[C@H](C(=O)N[C@@H](Cc1c[nH]c2ccccc12)C(=O)O)[C@@H](C)O)[C@@H](C)O | HLA class I histocompatibility antigen, A alpha chain allele A*26:01 | peptide-MHC binding, radioligand competition binding |  | > 70 µM |
| CSCC[C@H](NC(=O)[C@@H](N)CCCNC(=N)N)C(=O)N[C@@H](Cc1ccccc1)C(=O)NCC(=O)N1CCC[C@H]1C(=O)N1CCC[C@H]1C(=O)N[C@@H](CC(C)C)C(=O)N[C@H](C(=O)N[C@@H](Cc1ccccc1)C(=O)O)[C@@H](C)O | HLA class I histocompatibility antigen, A alpha chain allele A*24:02 | binding |  | 0.042 µM |
| CC[C@H](C)[C@H](NC(=O)[C@H](CCCNC(=N)N)NC(=O)CNC(=O)[C@@H](NC(=O)[C@@H]1CCCN1C(=O)[C@@H](N)CCSC)[C@@H](C)CC)C(=O)N[C@@H](C)C(=O)N[C@@H](CCC(=O)O)C(=O)N[C@@H](CS)C(=O)N[C@H](C(=O)N[C@@H](CC(C)C)C(=O)O)[C@@H](C)CC | HLA class I histocompatibility antigen, A alpha chain, allele A*02:03 (Homo sapiens, UniProt P04439) | binding, competitor, radioligand competition | two days, room temperature, HLA-A*02:03 | > 40 µM |

Repeated from above:
| SMILES | target | test | setting | IC50 |
| --- | --- | --- | --- | --- |
| CSCC[C@H](NC(=O)[C@H](CCC(=O)O)NC(=O)[C@H](CCC(=O)O)NC(=O)[C@@H](N)CCCNC(=N)N)C(=O)N[C@@H](CCC(=O)O)C(=O)N[C@H](C(=O)N[C@@H](Cc1c[nH]cn1)C(=O)N[C@@H](CCC(=O)O)C(=O)N[C@@H](CC(C)C)C(=O)O)C(C)C | HLA class I histocompatibility antigen, A alpha chain, allele A*30:02 (Homo sapiens, UniProt P04439) | binding, competitor, radioligand competition | two days, room temperature, HLA-A*30:02 | > 40 µM |
